Published values gathered from unrelated publications.
A part holds a random share of what one study measured.

Block 1
Target: Histone acetyltransferase KAT6A, both winged helices, GST fusion (KAT6A, Homo sapiens, UniProt Q92794, residues 1-181)
Technique: protein binding microarray
Molecule type: double-stranded DNA, one strand shown
Matrix: in vitro
Concentration: not given
Notes: 8-mer, flanks averaged, mean of 2 arrays, mostly near background
Baseline: not given
Direction: higher = stronger binding
Target sequence (chain): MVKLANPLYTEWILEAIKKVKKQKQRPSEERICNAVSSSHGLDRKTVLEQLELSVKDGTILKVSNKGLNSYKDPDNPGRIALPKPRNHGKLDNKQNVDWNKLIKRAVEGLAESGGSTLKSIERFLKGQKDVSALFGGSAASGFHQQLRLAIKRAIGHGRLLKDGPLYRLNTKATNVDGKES
| Strand | E-score |
| --- | --- |
| GGCAAGTA | -0.0737 |
| CAATAGTC | -0.159 |
| GTTCCGGA | 0.119 |
| CGGCAACA | 0.161 |
| CCCCACAG | -0.231 |
| GCGCAAAA | 0.268 |

Block 2
Target: Ras GTPase-activating protein-binding protein 1, RRM domain (G3BP1, Homo sapiens, UniProt Q13283)
Sequence of UniProt Q13283 (whole entry, looked up): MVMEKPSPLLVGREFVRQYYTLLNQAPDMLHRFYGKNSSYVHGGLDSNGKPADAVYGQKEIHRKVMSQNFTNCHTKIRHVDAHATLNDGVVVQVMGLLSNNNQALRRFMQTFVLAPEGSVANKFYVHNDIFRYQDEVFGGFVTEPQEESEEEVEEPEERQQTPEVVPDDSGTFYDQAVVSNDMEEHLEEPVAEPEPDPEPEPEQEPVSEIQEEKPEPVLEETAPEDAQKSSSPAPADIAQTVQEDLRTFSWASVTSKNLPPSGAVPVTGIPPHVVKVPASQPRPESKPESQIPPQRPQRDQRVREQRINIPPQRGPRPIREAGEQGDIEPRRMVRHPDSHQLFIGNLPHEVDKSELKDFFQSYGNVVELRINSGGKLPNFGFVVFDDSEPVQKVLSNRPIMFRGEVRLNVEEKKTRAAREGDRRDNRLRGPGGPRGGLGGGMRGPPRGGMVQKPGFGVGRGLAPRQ
Technique: RNA Bind-n-Seq
Molecule type: RNA
Matrix: in vitro
Concentration: 1 µM
Notes: whole 134-nt RNA, ends assumed
Added: 150 mM KCl
Baseline: input library
Direction: higher = stronger binding
| Strand | log2 enrichment |
| --- | --- |
| GGGAGUUCUACAGUCCGACGAUCGUCCUGUGCUACACAUCGUAUGUACCGAAUCGGGGAGGGGAAAAAAAGGGGUUUGGGGAAAGUAUUAUGUUACGCCGUUCGGAUCUGCACUGGAAUUCUCGGGUGUCAAGG | 1.01 |
| GGGAGUUCUACAGUCCGACGAUCCCUCAAGUCCUGUGCUACACAUCGUAUGUACCGAAUCGGUGGGGUGGUGGGGAAAGUAUUAUGUUACGCCGUUCGGAUCUGCACUUCCAGUGGAAUUCUCGGGUGUCAAGG | -0.208 |
| GGGAGUUCUACAGUCCGACGAUCAGUCCUGUGCUACACAUCGUAUGUACCGAAUCGGGGUUUUUGGGGAGGGGAAAGGGGAAAGUAUUAUGUUACGCCGUUCGGAUCUGCACUUGGAAUUCUCGGGUGUCAAGG | 1.09 |
| GGGAGUUCUACAGUCCGACGAUCCCUCAAGUCCUGUGCUACACAUCGUAUGUACCGAAUCGGUUUUUGGAGGAGGAAAGUAUUAUGUUACGCCGUUCGGAUCUGCACUUCCAGUGGAAUUCUCGGGUGUCAAGG | -0.172 |

Block 3
Target: Sal-like protein 4, full length isoform B (SALL4, Homo sapiens, UniProt Q9UJQ4-2, residues 1-616)
Technique: universal PBM
Molecule type: double-stranded DNA, one strand shown
Matrix: in vitro
Concentration: not given
Notes: 8-mer, flanks averaged, mean of replicates
Direction: higher = stronger binding
Construct (chain): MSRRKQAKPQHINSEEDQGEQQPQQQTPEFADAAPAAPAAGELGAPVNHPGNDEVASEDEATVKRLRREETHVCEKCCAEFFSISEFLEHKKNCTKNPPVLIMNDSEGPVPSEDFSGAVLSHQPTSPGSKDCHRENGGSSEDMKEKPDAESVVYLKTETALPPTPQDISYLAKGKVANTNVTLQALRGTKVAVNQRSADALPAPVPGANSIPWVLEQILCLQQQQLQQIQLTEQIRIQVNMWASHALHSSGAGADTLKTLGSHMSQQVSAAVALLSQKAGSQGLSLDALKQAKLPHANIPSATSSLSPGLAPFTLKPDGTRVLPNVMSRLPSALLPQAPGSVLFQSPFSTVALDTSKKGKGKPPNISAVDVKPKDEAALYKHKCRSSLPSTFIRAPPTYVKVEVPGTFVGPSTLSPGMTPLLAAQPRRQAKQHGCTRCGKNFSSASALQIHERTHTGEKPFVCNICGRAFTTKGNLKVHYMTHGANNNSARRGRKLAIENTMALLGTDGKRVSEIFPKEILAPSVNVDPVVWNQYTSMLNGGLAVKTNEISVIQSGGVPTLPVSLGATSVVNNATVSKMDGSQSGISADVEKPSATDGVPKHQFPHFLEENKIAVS
| Strand | E-score |
| --- | --- |
| AATCCACT | 0.0323 |
| AGTTATCG | 0.195 |
| ACCAATCG | 0.0938 |
| CTGGTGGC | -0.314 |

Other studies, line by line
| Molecule | target | test | test system | conditions | how to read | measurement | value |
| --- | --- | --- | --- | --- | --- | --- | --- |
| PhoQ, residues 284 288 289 292 302 303 SSTLLI | PhoP, residues 12 14 15 18 19 NQAHL (Escherichia coli, UniProt P23836) | Sort-seq, item: YFP reporter | E. coli | PhoQ-PhoP variant library, added: 10 µM Mg2+ | baseline: high Mg2+ state, higher = stronger signaling | fold induction | 1.15 |

For quick reference, copied from above (block 3):
| Strand | E-score |
| --- | --- |
| ACCAATCG | 0.0938 |
| CTGGTGGC | -0.314 |
